Results from different studies.
Compare with care: the assays were run in different laboratories.
Method: steady-state kinetics
B1: UGT1A1 (Homo sapiens, UniProt P22309); chain HAGKILLIPVDGSHWLSMLGAIQQLQQRGHEIVVLAPDASLYIRDGAFYTLKTYPVPFQREDVKESFVSLGHNVFENDSFLQRVIKTYKKIKKDSAMLLSGCSHLLHNKELMASLAESSFDVMLTDPFLPCSPIVAQYLSLPTVFFLHALPCSLEFEATQCPNPFSYVPRPLSSHSDHMTFLQRVKNMLIAFSQNFLCDVVYSPYATLASEFLQREVTVQDLLSSASVWLFRSDFVKDYPRPIMPNMVFVGGINCLHQNPLSQEFEAYINASGEHGIVVFSLGSMVSEIPEKKAMAIADALGKIPQTVLWRYTGTRPSNLANNTILVKWLPQNDLLGHPMTRAFITHAGSHGVYESICNGVPMVMMPLFGDQMDNAKRMETKGAGVTLNVLEMTSEDLENALKAVINDKSYKENIMRLSSLHKDRPVEPLDLAVFWVEFVMRHKGAPHLRPAAHDLTWYQYHSLDVIGFLLAVVLTVAFITFKCCAYGYRKCLGKKGRVKKAHKSKTH
B2: UGT2B4 (Homo sapiens, UniProt P06133); chain GKVLVWPTEFSHWMNIKTILDELVQRGHEVTVLASSASISFDPNSPSTLKFEVYPVSLTKTEFEDIIKQLVKRWAELPKDTFWSYFSQVQEIMWTFNDILRKFCKDIVSNKKLMKKLQESRFDVVLADAVFPFGELLAELLKIPFVYSLRFSPGYAIEKHSGGLLFPPSYVPVVMSELSDQMTFIERVKNMIYVLYFEFWFQIFDMKKWDQFYSEVLGRPTTLSETMAKADIWLIRNYWDFQFPHPLLPNVEFVGGLHCKPAKPLPKEMEEFVQSSGENGVVVFSLGSMVSNTSEERANVIASALAKIPQKVLWRFDGNKPDTLGLNTRLYKWIPQNDLLGHPKTRAFITHGGANGIYEAIYHGIPMVGVPLFADQPDNIAHMKAKGAAVSLDFHTMSSTDLLNALKTVINDPLYKENAMKLSRIHHDQPVKPLDRAVFWIEFVMRHKGAKHLRVAAHDLTWFQYHSLDVTGFLLACVATVIFIITKCLFCVWKFVRTGKKGKRD
B3: enzyme (Chlamydomonas reinhardtii, UniProt A0A2K3D977); chain ASDSVLAVWRKADAVCFDVDCTITVNDSLDLLAEFMGVKEQVEILTNKAMDGSLSLEQALEERLNIINCSPDDIKRFIKAHPPASRMAPGIKELINSLQARGKAIYLISGGFRELTLPIAAYLGIPKENVFANRMNWQWDDETGMPTKLVGFDMSEPTAHNQGKPQAIARIRQRNPYNTVVMIGDGITDLEAVQTTGGADLFIGSGVVVERPAVAREADWYVYDYTDLLRTMARYSVAMVGSGAWACAAVRMIAQNTQVDDAADEFVDEVRMWVYEEDFEGKKLTEVINQTHTNPKYFPGFDLGPNVVAVPNIVDAVADADLIVFCAPHQFLHHICKQLVGKIKPGAAAISLTKGMRVRPEGPQLISQMVRRLLGIDCCVLMGANIATDIGREQLSEAVIGYDNLDAATLFQKIFQRPYFRVNLLPDPVGAEMCGTLKNIVALGAGMVDGLGLGPNSKAAIIRQGLVEMRAFSKALYPSVRDDTFMESCGVGDLVATCYGGRNRLVACEWTKAQMEGKPRTFEDLETDLLKGQKLQGVLTSNEVQEILKVRGWESQYPLFTTVNRIINGYLPPKYVVEFVAGAKYHIRRPGTDDEEIVPVRPKRPAAAGGVATAPILAA
B4: RPT2 (Arabidopsis thaliana, UniProt Q682S0); chain MATEGKNPINMNSMSSSLARTGQWVFSQDIPTDVVVEVGEANFSLHKFMLVAKSNYIRKLIMESKDSDVTRINLSDIPGGPEIFEKAAKFCYGVNFEITVQNVAALHCAAEFLQMTDKYCDNNLAGRTQDFLSQVALSSLSGAIVVLKSCEILLPISRDLGIVRRCVDVVGAKACNEAMFPCRTPPNWWTEELCILDVDFFSDVVSSMKQRGVKPSSLASAIITYTEKSLRDLVRDHSGRGVKYSDPGDNESDERSQQRDLVQSIVSLLPSDKGLFPVNFLCSLLRCAVFLDTSLTCKNELEKRISVVLEHVSVDDLLIPSFTYDGERLLDLDSVRRIISAFVEKEKNVGVFNGGDFNRGVCSVSLQRVAKTVDSYLAEIATYGDLTISKFNAIANLVPKSARKSDDDLYRAIDIFLKAHPNLDEIEREKVCSSMDPLKLSYDARLHASQNKRLPVNIVLHALYYDQLKLRSGVAEQEERAVVVLPEALKTRSQLQADTTLAKENEALRSELMKMKMYVSDMQKNKNGAGASSSNSSSLVSSKKSKHTFFSSVSKKLGKLNPFKNGSKDTSHIDEDLGGVDITKPRRRRFSIS
B5: enzyme C74S (UniProt A0A0P0CH59); chain MRIALFSDIHANLPALEAVLANMETQQLDAIYCLGDLVGYAPWPNEVVAEIRKRRIPTIAGNYDEGVGLWSPNSGCAYKTDTEKDLGQQSIDFTNNVVTEETRKYLRMLPRQLRLTFMDGSKEENKIELLLVHGSPRKINEYLFEDRPEKSFLKMMEEANADLLFFGHTHKPYHRAMPYEHEGQTRYRHAINIGSVGKPKDGDPRTGYVVVELTPESSLTQKDSIKVEFIRVPYDVETAAQAVEASPLPNEFAQMLRTA
UniProt P05181, sequence (whole entry, looked up): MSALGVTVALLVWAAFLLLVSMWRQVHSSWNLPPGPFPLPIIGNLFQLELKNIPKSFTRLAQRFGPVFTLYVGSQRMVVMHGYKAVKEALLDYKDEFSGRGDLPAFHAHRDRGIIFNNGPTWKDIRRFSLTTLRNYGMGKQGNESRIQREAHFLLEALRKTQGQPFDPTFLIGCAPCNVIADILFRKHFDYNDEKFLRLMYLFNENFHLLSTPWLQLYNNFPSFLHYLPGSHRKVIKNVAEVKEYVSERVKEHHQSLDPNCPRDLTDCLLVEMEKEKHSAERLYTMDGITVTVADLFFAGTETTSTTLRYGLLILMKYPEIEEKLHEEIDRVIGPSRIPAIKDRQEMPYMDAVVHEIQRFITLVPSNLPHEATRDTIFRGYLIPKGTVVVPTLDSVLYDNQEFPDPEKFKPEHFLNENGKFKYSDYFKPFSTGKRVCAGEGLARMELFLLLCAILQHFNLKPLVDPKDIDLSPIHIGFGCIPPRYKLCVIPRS
UniProt Q9LRS0, sequence (whole entry, looked up): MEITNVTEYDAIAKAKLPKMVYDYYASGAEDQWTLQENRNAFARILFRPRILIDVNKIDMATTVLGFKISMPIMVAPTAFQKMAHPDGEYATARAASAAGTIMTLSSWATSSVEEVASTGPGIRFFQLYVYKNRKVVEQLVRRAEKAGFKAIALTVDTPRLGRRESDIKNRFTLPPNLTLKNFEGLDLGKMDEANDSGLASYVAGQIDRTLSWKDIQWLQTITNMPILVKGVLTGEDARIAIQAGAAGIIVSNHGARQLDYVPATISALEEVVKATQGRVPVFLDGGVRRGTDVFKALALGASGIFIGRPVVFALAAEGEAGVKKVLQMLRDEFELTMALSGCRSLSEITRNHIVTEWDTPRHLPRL

Molecule | substrate | pH | temperature | setting | added | Vmax
B1 (UGT1A1) | C[C@]12CC[C@@H]3c4ccc(O)cc4CC[C@H]3[C@@H]1CC[C@@H]2O |  | 37 °C | not purified |  | 7.4e-05 µmol/min/mg
B2 (UGT2B4) | CC(C)=CCc1cc2c(cc1O)O[C@H](c1ccc(O)cc1)CC2=O | pH 7.4 |  |  |  | 0.000428 µmol/min/mg
enzyme (Bacteroides fragilis, UniProt Q5LAD6) | C[C@@H]1O[C@@H](Oc2ccc([N+](=O)[O-])cc2)[C@@H](O)[C@H](O)[C@@H]1O | pH 7 | 37 °C |  |  | 0.00187 µmol/min
enzyme (Ectocarpus siliculosus, UniProt D7FYY3) | C=C(OP(=O)(O)O)C(=O)O | pH 5.5 | 25 °C |  | 2 mM ADP | 16.8 µmol/min/mg
GLO2 (Arabidopsis thaliana, UniProt Q9LRS0) | O=C(O)CO |  |  |  |  | 24.5 µmol/min/mg
enzyme (UniProt A0A097IUE6) | O=C(O)O | pH 6.5 | 25 °C |  |  | 61.6 µmol/min/mg
B3 (enzyme) | O=C(CO)COP(=O)(O)O | pH 7.5 |  |  | NADH 500 µM | 193 µmol/min/mg
B4 (RPT2) | Nc1nc2c(ncn2[C@@H]2O[C@H](COP(=O)(O)OP(=O)(O)OP(=O)(O)O)[C@@H](O)[C@H]2O)c(=O)[nH]1 | pH 7.5 | 30 °C |  |  | 2.87 µmol/min
B5 (enzyme C74S) | O=[N+]([O-])c1ccc(OP(=O)(O)O)cc1 | pH 7 | 37 °C |  | Ni2+ 0.25 mM | 0.137 µmol/min/mg
gdh E198G/N192S/N97F (Bacillus subtilis) | NC(=O)c1ccc[n+]([C@@H]2O[C@H](COP(=O)(O)OP(=O)(O)OC[C@H]3O[C@@H](n4cnc5c(N)ncnc54)[C@H](O)[C@@H]3O)[C@@H](O)[C@H]2O)c1 | pH 7 | 50 °C |  |  | 422 µmol/min/mg
CYP2E1 (Homo sapiens, UniProt P05181) | O=[N+]([O-])c1ccc(O)cc1 | pH 7.4 | 37 °C |  |  | 0.00188 µmol/min/mg
gdh N192S/N97F (Bacillus subtilis) | NC(=O)c1ccc[n+]([C@@H]2O[C@H](COP(=O)(O)OP(=O)(O)OC[C@H]3O[C@@H](n4cnc5c(N)ncnc54)[C@H](O)[C@@H]3O)[C@@H](O)[C@H]2O)c1 | pH 7 | 55 °C |  |  | 327 µmol/min/mg
enzyme (UniProt A0A097IUD8) | Nc1ncnc2c1ncn2[C@@H]1O[C@H](COP(=O)(O)OP(=O)(O)O)[C@@H](O)[C@H]1O | pH 6 | 25 °C |  | 16 mM PEP | 34.3 µmol/min/mg

Some of these lines once more:
Molecule | substrate | pH | temperature | setting | added | Vmax
B3 (enzyme) | O=C(CO)COP(=O)(O)O | pH 7.5 |  |  | NADH 500 µM | 193 µmol/min/mg
B4 (RPT2) | Nc1nc2c(ncn2[C@@H]2O[C@H](COP(=O)(O)OP(=O)(O)OP(=O)(O)O)[C@@H](O)[C@H]2O)c(=O)[nH]1 | pH 7.5 | 30 °C |  |  | 2.87 µmol/min
